{"data": "Measurements from different studies", "note": "Protocols differ between the studies behind these lines. Several values in a cell are separate wells, animals, samples, runs or records. Numbers after ± are the reported error."}
{"Structure (SMILES)": "Cc1ccc(N(O)/N=N/c2ccc(S(=O)(=O)Nc3nccs3)cc2)cc1", "assay": "ABTS scavenging", "setting": "20 µg/mL", "endpoint": "inhibition", "result": "43.8%"}
{"Structure (SMILES)": "COC1OC(C)C(OC2OC(C)C(OS(=O)(=O)O)C(OC3OC(C)C(OC4OC(C)C(OS(=O)(=O)O)C(OC5OC(C)C(OS(=O)(=O)O)C(OS(=O)(=O)O)C5OS(=O)(=O)O)C4OS(=O)(=O)O)C(OS(=O)(=O)O)C3OS(=O)(=O)O)C2OS(=O)(=O)O)C(OS(=O)(=O)O)C1OS(=O)(=O)O (stereo not drawn)", "system": "human plasma", "setting": "32 µg/mL", "endpoint": "activated partial thromboplastin time", "result": "59.1 s and 57.7 s and 56.9 s"}
{"Structure (SMILES)": "COC1CN([C@H]2CC[C@H]([C@@]3(C)Oc4c(Cl)cc(C(=O)NCc5c(SC)cc(C)[nH]c5=O)c(C)c4O3)CC2)C1", "assay": "RNA-seq, refers to: FMNL2 mouse homolog", "system": "mouse, HT-1376 xenograft, whole blood", "setting": "dose not given", "scale": "baseline: vehicle", "endpoint": "log2 fold change", "result": 0.389}
{"Structure (SMILES)": "CC(=O)NCC(=O)N[C@@H](Cc1ccccc1)C(=O)N[C@@H](Cc1ccccc1)C(=O)N[C@@H](Cc1ccc(O)cc1)C(=O)NCC(=O)N[C@@H](Cc1ccc(O)cc1)C(=O)NCC(=O)N[C@@H](CO)C(=O)N[C@@H](CO)C(=O)N[C@@H](CO)C(=O)N[C@@H](CCCNC(=N)N)C(=O)N[C@@H](CCCNC(=N)N)C(=O)N[C@@H](C)C(=O)N1CCC[C@H]1C(=O)N[C@@H](CCC(N)=O)C(=O)N[C@H](C(=O)O)[C@@H](C)O", "system": "male C57BL/6 mice depilated", "setting": "topical, 300 µL once daily, 2 µM, day 14", "scale": "baseline: control", "endpoint": "skin pigmentation", "result": "increased"}
{"Structure (SMILES)": "Nc1nc2cc(CC[C@H]3C[C@@H](n4ccc5c(N)ncnc54)[C@H](O)[C@@H]3O)ccc2cc1Br", "system": "NCI-H1048 xenograft, mouse", "setting": "3.0 mg/kg/day, day 28", "endpoint": "%ΔTGI", "result": "75.6%"}
{"Structure (SMILES)": "N#CCNC(=O)c1ccc([C@H]2[C@@H](F)[C@@H](F)C[C@@H](F)[C@H]2F)cc1", "assay": "liver microsome stability", "system": "human liver microsomes", "setting": "1 µM, without NADPH", "endpoint": "hepatic clearance", "result": "3.9 mL/min/kg"}
{"Structure (SMILES)": "COC1OC(C)C(OC2OC(C)C(OS(=O)(=O)O)C(OC3OC(C)C(OC4OC(C)C(OS(=O)(=O)O)C(OC5OC(C)C(OC6OC(C)C(OS(=O)(=O)O)C(OS(=O)(=O)O)C6OS(=O)(=O)O)C(OS(=O)(=O)O)C5OS(=O)(=O)O)C4OS(=O)(=O)O)C(OS(=O)(=O)O)C3OS(=O)(=O)O)C2OS(=O)(=O)O)C(OS(=O)(=O)O)C1OS(=O)(=O)O (stereo not drawn)", "system": "human plasma", "setting": "64 µg/mL", "endpoint": "activated partial thromboplastin time", "result": "118 s and 114 s and 109 s"}
{"Structure (SMILES)": "COc1cc(O)ccc1CCC(c1ccc(O)cc1)c1cc2c(c(C)c1O)OC(c1ccc(O)cc1)CC2 (mixture of isomers)", "assay": "refers to: 12-HEPE", "system": "human whole blood", "setting": "10 µM, together with: A23187", "endpoint": "amount", "result": "168 ± 48 pg/mL blood"}
{"Structure (SMILES)": "COC1OC(C)C(OC2OC(C)C(O)C(OC3OC(C)C(OC4OC(C)C(O)C(OC5OC(C)C(OC6OC(C)C(O)C(OC7OC(C)C(OC8OC(C)C(O)C(OS(=O)(=O)O)C8OS(=O)(=O)O)C(OS(=O)(=O)O)C7OS(=O)(=O)O)C6OS(=O)(=O)O)C(OS(=O)(=O)O)C5OS(=O)(=O)O)C4OS(=O)(=O)O)C(OS(=O)(=O)O)C3OS(=O)(=O)O)C2OS(=O)(=O)O)C(OS(=O)(=O)O)C1OS(=O)(=O)O (stereo not drawn)", "system": "human plasma", "setting": "64 µg/mL", "endpoint": "activated partial thromboplastin time", "result": "159 s and 160 s and 173 s"}
{"Structure (SMILES)": "N#Cc1cccc(-c2ccc([C@H]3[C@@H](F)[C@@H](F)C[C@@H](F)[C@H]3F)cc2)c1", "assay": "liver microsome stability", "system": "human liver microsomes", "setting": "1 µM, without NADPH", "endpoint": "hepatic clearance", "result": "3.9 mL/min/kg"}
{"Structure (SMILES)": "COC1OC(C)C(OS(=O)(=O)O)C(OC2OC(C)C(OS(=O)(=O)O)C(OC3OC(C)C(OS(=O)(=O)O)C(OC4OC(C)C(OS(=O)(=O)O)C(OC5OC(C)C(OS(=O)(=O)O)C(OC6OC(C)C(OS(=O)(=O)O)C(OC7OC(C)C(OS(=O)(=O)O)C(OC8OC(C)C(OS(=O)(=O)O)C(OS(=O)(=O)O)C8OS(=O)(=O)O)C7OS(=O)(=O)O)C6OS(=O)(=O)O)C5OS(=O)(=O)O)C4OS(=O)(=O)O)C3OS(=O)(=O)O)C2OS(=O)(=O)O)C1OS(=O)(=O)O (stereo not drawn)", "system": "human plasma", "setting": "64 µg/mL", "endpoint": "activated partial thromboplastin time", "result": "291 s and 324 s and 310 s"}
{"Structure (SMILES)": "CCCCCc1ccc(S(=O)(=O)N2CC2C(=O)OC)cc1 (stereo not drawn)", "system": "mouse, Lewis lung carcinoma", "setting": "intraperitoneal, 5 mg/kg, 16 doses, day 14", "endpoint": "tumour volume", "result": "481 mm3"}
{"Structure (SMILES)": "COc1ccc(C(=O)CCc2cc(C(CCc3ccc(O)cc3OC)c3ccc(O)cc3)c(O)cc2OC)cc1 (racemic)", "system": "human blood", "setting": "1 µM, together with: A23187", "endpoint": "TXB2 level", "result": "984 ± 397 pg/mL"}
{"Structure (SMILES)": "Cc1[nH]nc2c1N=C(c1ccccc1Cl)c1cnc(N3CCOCC3)cc1N2", "system": "mouse sample A TNBC PDX, sample B subtype", "setting": "oral, 15 mg/kg, 5 days per week", "endpoint": "tumour growth inhibition", "result": "90%"}
{"Structure (SMILES)": "COC1OC(C)C(OC2OC(C)C(O)C(OC3OC(C)C(OC4OC(C)C(O)C(OC5OC(C)C(OC6OC(C)C(O)C(OC7OC(C)C(OC8OC(C)C(O)C(OC9OC(C)C(OC%10OC(C)C(O)C(OC%11OC(C)C(OC%12OC(C)C(O)C(OS(=O)(=O)O)C%12OS(=O)(=O)O)C(OS(=O)(=O)O)C%11OS(=O)(=O)O)C%10OS(=O)(=O)O)C(OS(=O)(=O)O)C9OS(=O)(=O)O)C8OS(=O)(=O)O)C(OS(=O)(=O)O)C7OS(=O)(=O)O)C6OS(=O)(=O)O)C(OS(=O)(=O)O)C5OS(=O)(=O)O)C4OS(=O)(=O)O)C(OS(=O)(=O)O)C3OS(=O)(=O)O)C2OS(=O)(=O)O)C(OS(=O)(=O)O)C1OS(=O)(=O)O (stereo not drawn)", "system": "human plasma", "setting": "32 µg/mL", "endpoint": "activated partial thromboplastin time", "result": "67.9 s and 67.7 s"}
{"Structure (SMILES)": "COc1cc2c(NC3CCN(C(C)C)CC3)cc(N3CCOCC3)nc2cc1OCCCN1CCCC1", "assay": "TMT proteomics, refers to: GMFB", "system": "5xFAD mice, hippocampus", "setting": "dose not given, unit not given", "scale": "baseline: wild type", "endpoint": "protein level difference", "result": 0.0398}
{"Structure (SMILES)": "C=CC(=O)N1CC2C(=O)N(CCN(C)C)c3c(c4cc(Cl)c(-c5c(O)cccc5F)nc4n(-c4c(C)ccnc4C(C)C)c3=O)N2CC1C (stereo not drawn)", "assay": "immunohistochemistry", "system": "BALB/c nude mouse, H23-Luc intracranial tumour, brain tissue", "setting": "100 mg/kg, 21 days", "endpoint": "p-ERK level", "result": "decreased"}
{"Structure (SMILES)": "COC1OC(C)C(OS(=O)(=O)O)C(OC2OC(C)C(OS(=O)(=O)O)C(OC3OC(C)C(OS(=O)(=O)O)C(OC4OC(C)C(OS(=O)(=O)O)C(OC5OC(C)C(OS(=O)(=O)O)C(OS(=O)(=O)O)C5OS(=O)(=O)O)C4OS(=O)(=O)O)C3OS(=O)(=O)O)C2OS(=O)(=O)O)C1OS(=O)(=O)O (stereo not drawn)", "system": "human plasma", "setting": "8 µg/mL", "endpoint": "activated partial thromboplastin time", "result": "39.7 s and 39.3 s and 40 s"}
{"Structure (SMILES)": "CC(=O)[O-].O.O.[O-]c1ccc(Br)cc1C=NCCN1CCOCC1.[Zn+2]", "assay": "nitric oxide scavenging", "setting": "40 µM", "endpoint": "inhibition", "result": "12.6%"}
{"Structure (SMILES)": "N[C@@H](CNC(=O)N[C@@H](CS)C(=O)NCC(=O)O)C(=O)O", "assay": "ELISA", "system": "mouse C57BL/6, Aβ i.c.v. model, brain lysate", "setting": "intranasal, dose not given", "endpoint": "IL-6 level", "result": "16.2 ± 1.3 pg/mg protein"}
{"Structure (SMILES)": "Cc1ccc(NC(=O)NCc2ccc3c(c2)CN(C2CCC(=O)NC2=O)C3=O)cc1Cl (stereo not drawn)", "assay": "deuterium-hydrogen exchange", "system": "aqueous phosphate buffer", "setting": "pH 7.4, 37 °C", "endpoint": "exchange rate constant", "result": "-0.0206 h⁻¹"}
{"Structure (SMILES)": "CN1CCC[C@]1(C)/C=C/S(=O)(=O)NC(=O)Nc1c2c(cc3c1CCC3)CCC2", "system": "human, whole blood ex vivo", "setting": "12.5 mg twice daily, day 1, 12 h, multiple ascending dose, together with: LPS and ATP", "endpoint": "IL-1β inhibition", "result": "81.2%"}
{"Structure (SMILES)": "COC1OC(C)C(OC2OC(C)C(O)C(OC3OC(C)C(OC4OC(C)C(O)C(OC5OC(C)C(OC6OC(C)C(O)C(OC7OC(C)C(O)C(OS(=O)(=O)O)C7OS(=O)(=O)O)C6OS(=O)(=O)O)C(OS(=O)(=O)O)C5OS(=O)(=O)O)C4OS(=O)(=O)O)C(OS(=O)(=O)O)C3OS(=O)(=O)O)C2OS(=O)(=O)O)C(OS(=O)(=O)O)C1OS(=O)(=O)O (stereo not drawn)", "system": "human plasma", "setting": "32 µg/mL", "endpoint": "activated partial thromboplastin time", "result": "54.3 s and 55.9 s and 54.2 s"}
{"Structure (SMILES)": "COc1ccc(NC(=O)c2ccc3[nH]c(-c4ccc(N(C)C)cc4)nc3c2)cn1", "system": "CT26, BALB/c mice, subcutaneous syngeneic graft", "setting": "dose not given, day 4", "endpoint": "tumour volume", "result": "121 mm3 and 95.2 mm3 and 43.5 mm3 and 66 mm3 and 56.8 mm3"}
{"Structure (SMILES)": "COCC1CN(C2CCN(c3cc(OC)c(Nc4ncc(Br)c(Nc5ccc6c(c5P(C)(C)=O)OCCO6)n4)cc3C)CC2)C1", "assay": "RECIST 1.1", "system": "advanced EGFR-mutant NSCLC patients", "setting": "10 mg once daily", "endpoint": "not evaluable patients", "result": "33.3%"}
{"Structure (SMILES)": "COC1OC(C)C(OS(=O)(=O)O)C(OC2OC(C)C(OS(=O)(=O)O)C(OC3OC(C)C(OS(=O)(=O)O)C(OC4OC(C)C(OS(=O)(=O)O)C(OC5OC(C)C(OS(=O)(=O)O)C(OC6OC(C)C(OS(=O)(=O)O)C(OC7OC(C)C(OS(=O)(=O)O)C(OS(=O)(=O)O)C7OS(=O)(=O)O)C6OS(=O)(=O)O)C5OS(=O)(=O)O)C4OS(=O)(=O)O)C3OS(=O)(=O)O)C2OS(=O)(=O)O)C1OS(=O)(=O)O (stereo not drawn)", "system": "human plasma", "setting": "64 µg/mL", "endpoint": "activated partial thromboplastin time", "result": "150 s and 143 s and 148 s"}
{"Structure (SMILES)": "CN(C)Cc1nc(Nc2ccc(-c3cnc4cc(F)ccn34)c3c2C(=O)NC3)ccc1C1CCOC1 (stereo not drawn)", "system": "mouse EMT6 tumour model, spleen", "setting": "75 mg/kg, 2 h", "endpoint": "pSLP76 decrease", "result": "> 90%"}
{"note": "Excerpt of the above:"}
{"Structure (SMILES)": "CCCCCc1ccc(S(=O)(=O)N2CC2C(=O)OC)cc1 (stereo not drawn)", "system": "mouse, Lewis lung carcinoma", "setting": "intraperitoneal, 5 mg/kg, 16 doses, day 14", "endpoint": "tumour volume", "result": "481 mm3"}
{"Structure (SMILES)": "COc1ccc(C(=O)CCc2cc(C(CCc3ccc(O)cc3OC)c3ccc(O)cc3)c(O)cc2OC)cc1 (racemic)", "system": "human blood", "setting": "1 µM, together with: A23187", "endpoint": "TXB2 level", "result": "984 ± 397 pg/mL"}
{"Structure (SMILES)": "Cc1[nH]nc2c1N=C(c1ccccc1Cl)c1cnc(N3CCOCC3)cc1N2", "system": "mouse sample A TNBC PDX, sample B subtype", "setting": "oral, 15 mg/kg, 5 days per week", "endpoint": "tumour growth inhibition", "result": "90%"}
{"Structure (SMILES)": "COC1OC(C)C(OC2OC(C)C(O)C(OC3OC(C)C(OC4OC(C)C(O)C(OC5OC(C)C(OC6OC(C)C(O)C(OC7OC(C)C(OC8OC(C)C(O)C(OC9OC(C)C(OC%10OC(C)C(O)C(OC%11OC(C)C(OC%12OC(C)C(O)C(OS(=O)(=O)O)C%12OS(=O)(=O)O)C(OS(=O)(=O)O)C%11OS(=O)(=O)O)C%10OS(=O)(=O)O)C(OS(=O)(=O)O)C9OS(=O)(=O)O)C8OS(=O)(=O)O)C(OS(=O)(=O)O)C7OS(=O)(=O)O)C6OS(=O)(=O)O)C(OS(=O)(=O)O)C5OS(=O)(=O)O)C4OS(=O)(=O)O)C(OS(=O)(=O)O)C3OS(=O)(=O)O)C2OS(=O)(=O)O)C(OS(=O)(=O)O)C1OS(=O)(=O)O (stereo not drawn)", "system": "human plasma", "setting": "32 µg/mL", "endpoint": "activated partial thromboplastin time", "result": "67.9 s and 67.7 s"}
